Measured values gathered from unrelated publications.
Each numbered part is a random draw from the data of one study; scales do not carry over between parts.

Series 1 — technique: protein binding microarray; molecule type: double-stranded DNA, one strand shown; sample: in vitro; concentration: not given; relative to: not given; direction: higher = stronger binding
Target: Histone acetyltransferase KAT6A, winged helix 1, GST fusion (KAT6A, Homo sapiens, UniProt Q92794, residues 1-85)
Notes: 8-mer, flanks averaged, mean of 2 arrays, mostly near background
Target sequence (chain): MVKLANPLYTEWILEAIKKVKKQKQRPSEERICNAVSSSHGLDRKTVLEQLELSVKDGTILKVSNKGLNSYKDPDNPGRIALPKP
`ACGGAATA` gave an E-score of 0.156.
`CGTGACCC` has an E-score of 0.169.
For `TACTGGAA`, the E-score was -0.17.
`ACTGGCCG` gave an E-score of 0.229.
With `ATGGCGCA` the E-score was 0.168.
With `AAGCGGGA` the E-score was 0.334.
The E-score of `AGATCTAA` is reported as -0.127.
With `TGGTGAAA` the E-score was -0.157.
The E-score of `CCTTACGA` is reported as -0.027.
The E-score of `AAAAGCGC` is reported as 0.303.
`AGCACGGA` gave an E-score of 0.082.
`ATAGCCCC` has an E-score of 0.0329.
The E-score of `AAGCCTGG` is reported as -0.113.
For `CGACGCAC`, the E-score was 0.226.
For `GCCGAAGA`, the E-score was 0.122.
For `GTCGGGCA`, the E-score was 0.109.
With `AAAGTGGA` the E-score was -0.224.
`TGTATACA` has an E-score of -0.169.
`GACCATCC` gave an E-score of -0.0554.
The E-score of `GCCGCGTA` is reported as 0.417.
With `ATTTCCTA` the E-score was -0.208.
For `GACGGGGA`, the E-score was 0.327.
The E-score of `TATGCACA` is reported as -0.229.
The E-score of `TGTCCGAA` is reported as 0.0331.
`TCACACAA` gave an E-score of -0.231.

Series 2 — technique: universal PBM; molecule type: double-stranded DNA, one strand shown; sample: in vitro; concentration: not given; direction: higher = stronger binding
Target: Sal-like protein 4, full length isoform B (SALL4, Homo sapiens, UniProt Q9UJQ4-2, residues 1-616)
Notes: 8-mer, flanks averaged, mean of replicates
The E-score of `AGCGCTCC` is reported as -0.181.
For `ATACCAAA`, the E-score was 0.271.
`CTACGTAA` has an E-score of 0.13.
With `ATGCAAAC` the E-score was 0.0977.
With `GCAGGTCA` the E-score was -0.177.
The E-score of `ACTGATCG` is reported as -0.158.
For `TCCATAAA`, the E-score was 0.273.
`ATGATCTG` gave an E-score of 0.145.
`GCATTCAC` gave an E-score of 0.0712.
For `CTCGGCAA`, the E-score was -0.108.
`CTAATAGA` gave an E-score of 0.189.
The E-score of `GTCTACAA` is reported as 0.0298.
With `CCGTACAG` the E-score was -0.00531.
The E-score of `CTTCCAAG` is reported as -0.062.
With `GAGCTGCC` the E-score was -0.344.
`AACCGGCC` gave an E-score of -0.384.
With `CATTTCTC` the E-score was 0.0912.
`GATGGCAC` gave an E-score of -0.304.
With `CCTCGGAC` the E-score was -0.2.

Series 3 — technique: RNA Bind-n-Seq; molecule type: RNA; sample: in vitro; concentration: 365 nM; relative to: no-protein control; direction: higher = stronger binding
Target: RNA binding protein fox-1 homolog 2, RRM domain, GST-SBP tag (RBFOX2, Homo sapiens, UniProt O43251-10, residues 100-194)
Notes: natural RNA segment, single round, ends assumed
Target sequence (chain): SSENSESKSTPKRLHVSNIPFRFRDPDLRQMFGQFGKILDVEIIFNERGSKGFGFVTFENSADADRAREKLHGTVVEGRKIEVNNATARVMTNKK
`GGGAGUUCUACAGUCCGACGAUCUCCUUGGAAGGAUCCGCUGAAGGUCAGCGUAUAGGUGAUGUACAGUUCCUAAUAUCACAUCAGUCUCAGAGUGUUCACAGGAAGCAGCAAGGGCACUCGUGGAGUAUGUGUGGAAUUCUCGGGUGCCAA` — result for “RBNS enrichment (R)”: 2.14.
`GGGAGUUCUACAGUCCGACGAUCGGGGGGAGCACAUAUGCAUAUAUAUAUAUGAGAAUAGCCAACUUCUACAGAAAAAAGACAAGUGGAAGUGGUUUACCAAUACCUAGCAUGGUACAAUCAGAGCUCCGUGGUGGAAUUCUCGGGUGCCAA` — result for “RBNS enrichment (R)”: 0.974.
`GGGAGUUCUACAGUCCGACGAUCAAGCUAUAUUUAUACCAGUGUCACCCUUUUCUUGUAGAAUAUACUAAUAAUCUGUGCCAACUCUACCUUCUCACUUUUACCUCUGACGUCAUUCUUUUUUUCUGAAAGAGUGGAAUUCUCGGGUGCCAA` — result for “RBNS enrichment (R)”: 0.367.
Under “RBNS enrichment (R)”, `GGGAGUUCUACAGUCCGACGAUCGGGCUCAGUCUUUUGAGGUAAGUGGAAUUAGAGGGCCUUGCUUCUCUUCUUUCCAUUCUUCUUGCUACACCCCUUUUCCAGUUGCUGUGGACCAAUGCAUCUCUUUAAAGUGGAAUUCUCGGGUGCCAA` is recorded as 0.54.
`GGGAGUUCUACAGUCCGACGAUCAUGCCUACCUACUGAGGCGCCUUCUCUUUUUAUUCUUGAGCCAAUGAGAUAUCAGUGUGUUUAUUAAUAAGGAUUGCAAUAGUAUAGUGCUUAAUAUGUGCCAGGCAUAGUGGAAUUCUCGGGUGCCAA`: “RBNS enrichment (R)” 0.248.
`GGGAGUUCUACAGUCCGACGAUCCACAGACGUGGGCCUGGGCCUUCUCAGCAGCCACCUUCUAGCUGGGGGCUAGUAGCUGACCUGCUGCCUCCUGCCCUACUUGUGUGGACAGGAGGCCCACGGGCACUGGGUGGAAUUCUCGGGUGCCAA`: “RBNS enrichment (R)” 0.324.
`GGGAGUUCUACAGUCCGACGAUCGAUGAGCUACCCCCUCAGGUGCACAAGGUAUAGACAAGGCUGAGCAGGGUUCCUGUGGCCCAGGAUGGAGGCCACCGCUGCCCUGCCAUCCCGUCUGCCUGCCAUGGGACUGGAAUUCUCGGGUGCCAA` — result for “RBNS enrichment (R)”: 0.527.
Under “RBNS enrichment (R)”, `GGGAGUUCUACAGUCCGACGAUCGAUCCCACACAGGCUGGCGGGGGCCGGCCCCGAGGCCGCGUGCGUGAGAACCGCGCCGGUGUCCCCAGAGACCAGGCUGUGUCCCUCUUCUCUUCCCUGCGCCUGUGAUGUGGAAUUCUCGGGUGCCAA` is recorded as 0.493.

Series 4 — technique: RNA Bind-n-Seq; molecule type: RNA; sample: in vitro; concentration: not given; notes: RNA with constant flanks, ends assumed; relative to: input RNA pool; direction: higher = stronger binding
Target: RING finger protein unkempt homolog, zinc fingers 1-6, GST-SBP tag (UNK, Homo sapiens, UniProt Q9C0B0, residues 30-357)
Residues (chain): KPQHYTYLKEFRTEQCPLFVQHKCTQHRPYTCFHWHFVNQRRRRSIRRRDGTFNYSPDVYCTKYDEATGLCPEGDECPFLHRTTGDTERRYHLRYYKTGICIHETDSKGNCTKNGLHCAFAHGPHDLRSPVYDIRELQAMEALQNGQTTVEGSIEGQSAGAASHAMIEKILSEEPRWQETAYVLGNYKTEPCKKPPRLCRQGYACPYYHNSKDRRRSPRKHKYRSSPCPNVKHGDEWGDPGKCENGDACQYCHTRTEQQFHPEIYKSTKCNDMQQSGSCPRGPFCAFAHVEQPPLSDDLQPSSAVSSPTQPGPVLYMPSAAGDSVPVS
`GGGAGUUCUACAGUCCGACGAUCGUUCGAUUACUCUACGCAAAGCGACCAGGAAUUGGACUGUCUCCGUCUCACAGGAGGUACUCCGGCUACAUGUGCGACCUACUUGCAGAUAAGCCCUACCGCCCUCACUUCAAGCCACUCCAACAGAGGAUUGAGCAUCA` gave a bound/input enrichment of 0.0592 ratio.
`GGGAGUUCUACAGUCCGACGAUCUGCAGUUCAAAUCCUUGCCCCAGUGAGGGAAUCCCUAGGGAAGUGGGUGAUGGGACCCGAGCCGAUCCACUUCCUCCAGUUCAUUCGGCCUCUAAAGAAAUCACAGAGUCCAAGGCACAACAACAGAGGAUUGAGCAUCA` gave a bound/input enrichment of 0.102 ratio.
`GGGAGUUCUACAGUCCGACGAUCCCUGCGCCGCCUCCUCCCACCCUGAGCAGAGCCGCCGAGGAUGAUAAACACCCAGGACAGCCGUAUUUUGCCUUUGAGUAACUGUCCCCAGCUCCAGUGCUGCAGGCACAUUGUUCCAGGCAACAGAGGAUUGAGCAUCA` has a bound/input enrichment of 0.216 ratio.
The bound/input enrichment of `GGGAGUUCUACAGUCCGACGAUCCACCAACAGUAUGUGCAGCGGAUAGAGAAGCAGUUUCUUUUGUAUGCAUACUGGACCGGCCUGGGGAUUUUGUCCUCUGUUGGUCUUGGAACAGGACUGCACACCUUUCUGCUUUAUCUGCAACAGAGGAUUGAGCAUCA` is reported as 0.0479 ratio.
The bound/input enrichment of `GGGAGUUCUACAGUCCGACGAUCUGUCAACACUGCUUUGAACAGUGCUCUGUGAAGUGUAAGUUCUUUUGUCCCAACAGUUGUACCCGCUGUCAUGUGGUUAUUGUCUGAACAAGUCUUUUGAUUUUGUUUUCCUUAAAAAGUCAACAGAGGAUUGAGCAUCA` is reported as 0.142 ratio.
`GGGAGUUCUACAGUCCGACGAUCAGUCUCACGAACGUAGGAAAUUCAUUUAGUGGCCCACCUAAUCCUUUAGUGUCUAGAUCCCGUAAGUUUCAGAACUCAUCAGUAGAAGAUGAUGAUGACGUUGUUUUUAUUGAACCUGUACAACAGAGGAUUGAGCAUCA` has a bound/input enrichment of 2.06 ratio.
For `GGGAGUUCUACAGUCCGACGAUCGGCCUGGAGUUCGGCAAGUUGCCAUUUGGUGCCUGUGAAGAUCCUAUCAGUGAACUCCAUUCCGCAACAACGUGGCCUCAUUUGACAGAAGGGAUCAUUGUAGAUAAUGAUGUUUAUUCUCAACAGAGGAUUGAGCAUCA`, the bound/input enrichment was 0.172 ratio.
`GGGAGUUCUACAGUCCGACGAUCUAUUAACUGGGUGUUCUGACCACGAGGGACUCCUGGCAUCCACGAUUGUUCUGAUUCGCCAACCGCCUUCUCUUGUCUACAGCUGCCAAUGCCAAGAGUCCCUAGCCUGCCUUCCUCACCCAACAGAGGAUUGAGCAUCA` has a bound/input enrichment of 0.204 ratio.
